Assay results gathered from unrelated publications.
Each numbered part is a random draw from the data of one study; scales do not carry over between parts. Changes are numbered by the printed parent chain.

Set 1
Target: Prothrombin, mature alpha-thrombin (F2, Homo sapiens, UniProt P00734)
Technique: aptamer microarray, sandwich
Form: DNA with 2'F-ANA
Sample: in vitro
Concentration: 200 nM
Notes: whole 15-mer aptamer, many near background
With: Cy3 exosite-II aptamer, 400 nM
Direction: higher = stronger binding
Oligonucleotide: GGTTGGTGTGGTTGG
Modification | mean fluorescence intensity
2'F-ANA at 3 5 6 7 8 9 11 13 | 101 a.u.
2'F-ANA at 2 3 5 7 8 12 15 | 272 a.u.
2'F-ANA at 1 3 4 6 7 8 12 14 | 99.3 a.u.
2'F-ANA at 1 2 3 5 7 8 9 11 13 14 15 | 98.6 a.u.
2'F-ANA at 1 2 3 4 6 11 12 14 15 | 65.5 a.u.
2'F-ANA at 1 2 3 4 6 7 11 | 133 a.u.
2'F-ANA at 3 5 6 7 9 11 | 86.3 a.u.
2'F-ANA at 3 4 6 7 8 11 15 | 560 a.u.

Set 2
Change: Q167K
Target: ABI1, truncated, D143A, DHFR fusion (Arabidopsis thaliana)
Technique: DHFR PCA, deep sequencing
Sample: yeast
Notes: methotrexate growth selection, single substitutions
Baseline: wild-type fitted maximum
Direction: higher = stronger binding
Parent: PYL1, truncated, DHFR fusion (Arabidopsis thaliana); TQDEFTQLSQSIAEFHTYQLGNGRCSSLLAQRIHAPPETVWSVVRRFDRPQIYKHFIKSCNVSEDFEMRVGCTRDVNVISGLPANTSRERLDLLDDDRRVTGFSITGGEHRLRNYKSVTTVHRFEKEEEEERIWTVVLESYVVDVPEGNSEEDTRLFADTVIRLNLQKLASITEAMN; partner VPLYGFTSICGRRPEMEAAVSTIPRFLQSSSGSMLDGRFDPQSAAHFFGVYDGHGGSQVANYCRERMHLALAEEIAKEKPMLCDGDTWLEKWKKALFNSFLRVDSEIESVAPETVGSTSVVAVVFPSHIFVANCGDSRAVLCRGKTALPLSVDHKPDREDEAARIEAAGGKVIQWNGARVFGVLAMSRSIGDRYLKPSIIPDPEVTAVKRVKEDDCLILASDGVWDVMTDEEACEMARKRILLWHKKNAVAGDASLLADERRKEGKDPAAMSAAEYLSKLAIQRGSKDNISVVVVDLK
setting | relative binding score [%]
with: (+)-ABA 1.4 µM | 69.3
with: (+)-ABA 0 µM | 26.2
with: (+)-ABA 4.8 µM | 90.8
with: (+)-ABA 0.032 µM | 30.2
with: (+)-ABA 0.0091 µM | 26.5
with: (+)-ABA 710 µM | 106

Set 3
Target: POU domain, class 5, transcription factor 1, POU domain (Pou5f1, Mus musculus, UniProt P20263, residues 131-289)
UniProt P20263, sequence (131-289, looked up): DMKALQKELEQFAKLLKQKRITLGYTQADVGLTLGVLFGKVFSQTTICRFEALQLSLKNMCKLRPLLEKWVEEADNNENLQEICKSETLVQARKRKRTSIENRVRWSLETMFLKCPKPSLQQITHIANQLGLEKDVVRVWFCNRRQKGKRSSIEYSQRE
Technique: Spec-seq
Form: double-stranded DNA, one strand shown
Sample: in vitro
Concentration: not given
Notes: whole probe, mean of replicates
Baseline: not given
Direction: lower = stronger binding
Shared flanks, not repeated: GAGTCGTCTCGTCAGCAC … CCGTAGAGCACTCAGGTC
Oligonucleotide | relative binding energy [ln ratio]
GTTTTAAT | 0.418
ATGCGCGA | 0.344
ATGCAAAG | -0.524
ATGCTAAT | -2.32
ATTCCAAT | -0.088
ATGCAATG | -0.0403
ATCTAGAT | 0.486
ATGCAAGG | -0.0443

Mixed results
Molecule | target | assay | system | how to read | measurement | result
FRYEFTAPF | HLA class I histocompatibility antigen, A alpha chain, allele A*80:01 (Homo sapiens, UniProt P04439) | peptide-MHC binding | peptide | direction not given | z-score of log IC50 | 0.38

Some of these lines once more (set 2):
setting | relative binding score [%]
with: (+)-ABA 1.4 µM | 69.3
with: (+)-ABA 0 µM | 26.2
